Results collected from several papers.
Parts stem from different laboratories: compare values within a part only. Changes are numbered by the printed parent chain.

Sample 1 — technique: protein binding microarray; molecule type: double-stranded DNA, one strand shown; matrix: in vitro; concentration: not given; reference: not given; direction: higher = stronger binding
Target: Histone acetyltransferase KAT6A, winged helix 2, GST fusion (KAT6A, Homo sapiens, UniProt Q92794, residues 85-181)
Notes: 8-mer, flanks averaged, mean of 2 arrays, mostly near background
Target sequence (chain): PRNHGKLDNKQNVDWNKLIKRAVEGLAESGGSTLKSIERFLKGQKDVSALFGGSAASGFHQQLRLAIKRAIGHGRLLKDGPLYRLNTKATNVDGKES
`CGGAATTC` gave an E-score of 0.00074.
With `GGGTACAA` the E-score was -0.0389.
The E-score of `CCCAGCGG` is reported as 0.155.
The E-score of `TAACGGAA` is reported as -0.063.
For `ATGTACAT`, the E-score was -0.0696.
For `CGGTTGGA`, the E-score was -0.00369.
`CGGGCCCA` gave an E-score of 0.068.
The E-score of `CGCACTTC` is reported as -0.0424.
For `TAGGTACA`, the E-score was -0.0843.
`ACACAAAT` gave an E-score of 0.119.
`ATGTGATG` has an E-score of -0.174.
For `AAGTACCT`, the E-score was -0.135.
`CTTGTGAA` gave an E-score of 0.0674.
`GATCTTAC` has an E-score of -0.0464.
`GAGTTTGC` has an E-score of 0.0809.
The E-score of `AGATATCT` is reported as 0.0664.
With `CTTTTTAC` the E-score was -0.038.

Sample 2 — technique: protein-binding microarray; molecule type: double-stranded DNA, one strand shown; matrix: in vitro; concentration: 2200 nM top; notes: 60-bp whole probe; added: salmon DNA 0.4 mg/ml; reference: random background probes; direction: higher = stronger binding; all sequences stand within: GCCTAGCAC … GTCTTGATTCGCTTGACGCTGCTG
Target: Interferon regulatory factor 7, full length, phosphomimetic (IRF7, Homo sapiens, UniProt Q92985, residues 1-503, S471D/S472D/S475D/S476D/S477D/S483D/S484D/S487D)
UniProt Q92985, sequence (whole entry, unmodified, looked up): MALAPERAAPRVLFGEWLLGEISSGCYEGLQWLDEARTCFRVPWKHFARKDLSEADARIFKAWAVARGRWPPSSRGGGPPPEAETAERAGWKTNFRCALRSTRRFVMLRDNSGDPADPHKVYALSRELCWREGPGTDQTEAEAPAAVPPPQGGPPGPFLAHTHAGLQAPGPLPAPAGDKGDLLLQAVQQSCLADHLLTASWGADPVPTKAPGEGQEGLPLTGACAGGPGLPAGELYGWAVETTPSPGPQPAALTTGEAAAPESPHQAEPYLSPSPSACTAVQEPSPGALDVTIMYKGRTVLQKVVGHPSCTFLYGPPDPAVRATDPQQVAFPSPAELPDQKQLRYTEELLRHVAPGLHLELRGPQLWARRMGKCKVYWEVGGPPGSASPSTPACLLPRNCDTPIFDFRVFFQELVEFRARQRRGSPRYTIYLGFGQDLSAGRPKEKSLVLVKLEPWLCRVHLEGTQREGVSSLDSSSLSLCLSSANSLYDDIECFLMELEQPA
`GACGGTTTCCTTATCCTGGCGTGCTAG` — result for “fitted relative affinity”: 3.11 z-score.
Under “fitted relative affinity”, `TTATGTTTCGGGACTGGGTTAGTGCTA` is recorded as 3.14 z-score.
For `GACGGTATCGGGTTACGGGACGTGCTA`, “fitted relative affinity” read 0.646 z-score.
`TCACATTGAGATTTCCAACTGTGCTAG`: “fitted relative affinity” 1.19 z-score.
Under “fitted relative affinity”, `TGGTTTTACTTTCTATCTCTGTGCTAG` is recorded as 5.71 z-score.
Under “fitted relative affinity”, `TTAGGTTTCGGTATCGGTTCGTGCTAG` is recorded as 8.65 z-score.
Under “fitted relative affinity”, `GACGGTTTCCTTATCCTCACGTGCTAG` is recorded as 3.03 z-score.
For `AACTTTTTTTTTTCCCTGAAGTGCTAG`, “fitted relative affinity” read 1.65 z-score.
`TCACTTCCATTTTCTGAAACTGTGCTA` — result for “fitted relative affinity”: 3.89 z-score.
For `TTAGAGCTGAGTATCGATTAGTGCTAG`, “fitted relative affinity” read -0.398 z-score.
`TTAGGTTTCGGCTTTCGGTTAGTGCTA` — result for “fitted relative affinity”: 8.46 z-score.
`TTAGGTTTCCTACTACTTTAGTGCTAG` — result for “fitted relative affinity”: 1.2 z-score.
Under “fitted relative affinity”, `TCACCCTTTGCTTTCCTACTGTGCTAG` is recorded as 2.87 z-score.
Under “fitted relative affinity”, `GACGGACTTCTTTTCCTGACGTGCTAG` is recorded as 0.687 z-score.
Under “fitted relative affinity”, `TCACCTCTCTCTATTCAACTGTGCTAG` is recorded as 2.2 z-score.
For `CTTTTTCCCTATTATATATATGTGCTA`, “fitted relative affinity” read 3.1 z-score.
Under “fitted relative affinity”, `GGCGGTATCGGTTTCGGGACGTGCTAG` is recorded as 3.37 z-score.
`AAACTCGTGTTTTTCTCCTAGTGCTAG` — result for “fitted relative affinity”: 1.36 z-score.
`TTAGATATCAGTATCGATAAGTGCTAG` — result for “fitted relative affinity”: -0.107 z-score.
For `TTAGGACTGGGGTATAGGTTAGTGCTA`, “fitted relative affinity” read -0.411 z-score.

Sample 3 — technique: protein-binding microarray; molecule type: double-stranded DNA, one strand shown; matrix: in vitro; concentration: not given; direction: higher = stronger binding
Target: Max-binding protein MNT, bHLH-zipper, MAX partner unstated (MNT, Homo sapiens, UniProt Q99583, residues 220-300)
Notes: k-mer, scored over probes, only values ≥0.25
Target sequence (chain): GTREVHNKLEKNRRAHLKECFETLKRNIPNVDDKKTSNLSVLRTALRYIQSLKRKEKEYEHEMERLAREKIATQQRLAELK
`CACGCATC` has an E-score of 0.313.
With `ACACGCAC` the E-score was 0.365.
`CCCTCACG` gave an E-score of 0.27.
With `GCACGCGA` the E-score was 0.429.
The E-score of `ACGCCTCC` is reported as 0.27.
`GCATGCGC` gave an E-score of 0.428.
The E-score of `AATACATG` is reported as 0.26.
The E-score of `AACGTGTG` is reported as 0.406.
With `GCGTGGCC` the E-score was 0.408.
For `CACCTGTA`, the E-score was 0.272.
`CAGGTGTA` gave an E-score of 0.293.

Sample 4 — technique: RNA Bind-n-Seq; molecule type: RNA; matrix: in vitro; concentration: 200 nM; notes: whole 134-nt RNA, ends assumed; added: 150 mM LiCl; reference: input library; direction: higher = stronger binding; each molecule: 7-deaza-guanosine replaces G
Target: Fragile X messenger ribonucleoprotein 1, C-terminal low-complexity region (Fmr1, Mus musculus, UniProt P35922)
`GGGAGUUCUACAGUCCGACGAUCUCAAGUCCUGUGCUACACAUCGUAUGUACCGAAUCGGGUGGGUGGGAAAAAGGGAAAGUAUUAUGUUACGCCGUUCGGAUCUGCACUUCCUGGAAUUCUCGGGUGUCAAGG` has a log2 enrichment of -0.949.
`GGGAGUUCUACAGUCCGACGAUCCCUCAAGUCCUGUGCUACACAUCGUAUGUACCGAAUCGGUUUUUGGUGGUGGAAAGUAUUAUGUUACGCCGUUCGGAUCUGCACUUCCAGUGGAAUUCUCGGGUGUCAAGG` gave a log2 enrichment of -0.205.
With `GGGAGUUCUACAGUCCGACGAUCUUCACACCAAGCUGGGGAACAUCAAGACCUUAAACCUGGCAGGCAACCUCCUAGAGAGUCUGAGUGGCCUGCACAAGCUCUACUCACUGGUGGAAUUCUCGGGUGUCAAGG` the log2 enrichment was -0.804.
`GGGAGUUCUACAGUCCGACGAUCCCUGUGCUACACAUCGUAUGUACCGAAUCGGGGUUUUUUGGGUUUUUUGGGUUUUUUGGGGAAAGUAUUAUGUUACGCCGUUCGGAUCUGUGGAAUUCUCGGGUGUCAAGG` has a log2 enrichment of -1.07.
With `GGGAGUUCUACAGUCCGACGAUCUUAGAAGAAGUGGAAAGGAAAAAACGCCAAAGGGAGUUGGAAAUUGAAGAACGAGAACGGCGUAGAGAGGAAGAGAGAAGACUUGGCGAUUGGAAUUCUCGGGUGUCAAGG` the log2 enrichment was 1.66.
With `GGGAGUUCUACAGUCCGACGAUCAAGUCCUGUGCUACACAUCGUAUGUACCGAAUCGGGUUUUUGGGUGGGUUUUUGGGAAAGUAUUAUGUUACGCCGUUCGGAUCUGCACUUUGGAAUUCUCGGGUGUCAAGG` the log2 enrichment was -1.76.
With `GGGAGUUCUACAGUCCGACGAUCUGGCCCUGGUGGCAUGCGGGGAGGAAGAGGUGGCCUCAUGGAUCGUGGUGGUCCCGGUCGAAUGUUCAGAGGUGGCCGUGGUGGAGACAGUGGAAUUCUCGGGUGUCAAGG` the log2 enrichment was -0.699.

Sample 5 — target: CCND2, cyclin fold, Cln2 fusion (human); technique: yeast growth competition, sequencing; matrix: yeast; notes: strong parent motif; reference: not given; direction: higher = stronger binding
Parent: E2F1 docking peptide (human); PPVKRRLDFETDH
`PPQKRRLDFETDH [V3Q]`: “normalised enrichment score” 0.367.
Under “normalised enrichment score”, `PPWKRRLDFETDH [V3W]` is recorded as 0.391.
`PPVKRRLDFPTDH [E10P]`: “normalised enrichment score” 0.727.
`PPVKRRLDFDTDH [E10D]`: “normalised enrichment score” 2.25.
`PPVKRREDFETDH [L7E]` — result for “normalised enrichment score”: 0.116.
Under “normalised enrichment score”, `PPVKRRLPFETDH [D8P]` is recorded as 0.462.
`PPVKRRLDFESDH [T11S]` — result for “normalised enrichment score”: 2.29.
Under “normalised enrichment score”, `PPVSRRLDFETDH [K4S]` is recorded as 1.86.
Under “normalised enrichment score”, `PPVKRRLDFEHDH [T11H]` is recorded as 2.08.
Under “normalised enrichment score”, `PPVERRLDFETDH [K4E]` is recorded as 0.665.
`PPVKRRFDFETDH [L7F]`: “normalised enrichment score” 0.237.
For `PPMKRRLDFETDH [V3M]`, “normalised enrichment score” read 0.674.
Under “normalised enrichment score”, `PPVKRRLDFETGH [D12G]` is recorded as 1.97.
Under “normalised enrichment score”, `PPVKRRLDYETDH [F9Y]` is recorded as 0.186.
`PPVKRRLDFETMH [D12M]` — result for “normalised enrichment score”: 1.86.

Sample 6 — technique: universal PBM; molecule type: double-stranded DNA, one strand shown; matrix: in vitro; concentration: not given; direction: higher = stronger binding
Target: Sal-like protein 4, full length isoform B (SALL4, Homo sapiens, UniProt Q9UJQ4-2, residues 1-616)
Notes: 8-mer, flanks averaged, mean of replicates
Construct (chain): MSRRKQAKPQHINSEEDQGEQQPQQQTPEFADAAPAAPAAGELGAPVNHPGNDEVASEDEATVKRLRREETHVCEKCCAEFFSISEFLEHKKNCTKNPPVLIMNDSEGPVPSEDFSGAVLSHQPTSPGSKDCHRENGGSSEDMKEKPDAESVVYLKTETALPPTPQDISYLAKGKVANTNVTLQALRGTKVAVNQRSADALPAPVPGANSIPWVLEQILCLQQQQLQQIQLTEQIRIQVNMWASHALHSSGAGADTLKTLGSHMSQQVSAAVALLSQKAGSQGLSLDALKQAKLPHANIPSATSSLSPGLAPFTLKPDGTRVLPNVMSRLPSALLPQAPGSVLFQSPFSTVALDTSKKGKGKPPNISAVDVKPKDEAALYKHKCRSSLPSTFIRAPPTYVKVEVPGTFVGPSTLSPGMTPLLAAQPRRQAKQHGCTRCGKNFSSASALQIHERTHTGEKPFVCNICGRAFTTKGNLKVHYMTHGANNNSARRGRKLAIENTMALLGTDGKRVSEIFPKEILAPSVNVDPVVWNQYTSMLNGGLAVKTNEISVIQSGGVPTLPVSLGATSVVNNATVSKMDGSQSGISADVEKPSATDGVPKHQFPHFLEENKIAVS
`ATGGTTCC` gave an E-score of -0.046.
With `AAAAGGTA` the E-score was 0.11.
With `GATCAGGA` the E-score was -0.192.
`AACTAGGG` has an E-score of -0.00806.
`GTTGTTCA` gave an E-score of 0.00433.
`GAACATAC` has an E-score of 0.161.
`TCCATTAA` gave an E-score of 0.277.
`ATTCCGCC` gave an E-score of -0.144.
`TCTAGCCA` has an E-score of 0.0741.
The E-score of `TCATGACA` is reported as 0.0867.
`CAGAGTCC` has an E-score of -0.0974.
`AAACTTCT` gave an E-score of 0.117.
The E-score of `CAAATTAC` is reported as 0.143.
The E-score of `ATGGGCAC` is reported as -0.0239.
For `GGCTTGTA`, the E-score was -0.0327.

For quick reference, copied from above (sample 6):
With `AAAAGGTA` the E-score was 0.11.
With `GATCAGGA` the E-score was -0.192.
`AACTAGGG` has an E-score of -0.00806.
`GTTGTTCA` gave an E-score of 0.00433.
`GAACATAC` has an E-score of 0.161.
`TCCATTAA` gave an E-score of 0.277.
`ATTCCGCC` gave an E-score of -0.144.
`TCTAGCCA` has an E-score of 0.0741.
The E-score of `TCATGACA` is reported as 0.0867.
`CAGAGTCC` has an E-score of -0.0974.
`AAACTTCT` gave an E-score of 0.117.
The E-score of `CAAATTAC` is reported as 0.143.
